Published values of several laboratories.
A part holds a random share of what one study measured. Changes are numbered by the printed parent chain.

Series 1 — method: RNA Bind-n-Seq; molecule type: RNA; matrix: in vitro; tested at: 1 µM; notes: whole 134-nt RNA, ends assumed; together with: 150 mM KCl; baseline: input library; reading: higher = stronger binding
Target: Ras GTPase-activating protein-binding protein 1, C-terminal RGG region (G3BP1, Homo sapiens, UniProt Q13283)
UniProt Q13283, sequence (whole entry, looked up): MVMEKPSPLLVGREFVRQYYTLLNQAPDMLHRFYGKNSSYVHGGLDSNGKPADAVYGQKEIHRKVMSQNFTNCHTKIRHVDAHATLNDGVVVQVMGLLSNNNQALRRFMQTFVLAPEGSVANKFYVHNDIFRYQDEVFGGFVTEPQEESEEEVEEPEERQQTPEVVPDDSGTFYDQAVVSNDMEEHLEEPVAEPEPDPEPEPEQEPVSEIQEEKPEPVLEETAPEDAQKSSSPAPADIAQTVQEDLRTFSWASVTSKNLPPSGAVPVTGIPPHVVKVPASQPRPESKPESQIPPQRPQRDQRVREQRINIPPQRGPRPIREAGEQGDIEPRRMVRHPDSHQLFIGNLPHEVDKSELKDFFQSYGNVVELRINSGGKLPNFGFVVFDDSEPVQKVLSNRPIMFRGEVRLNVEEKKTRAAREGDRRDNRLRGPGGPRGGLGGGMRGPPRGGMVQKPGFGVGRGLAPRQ
All sequences stand within: GGGAGUUCUACAGUCCGACGAUC … UGGAAUUCUCGGGUGUCAAGG
Sequence	log2 enrichment
AGUCCUGUGCUACACAUCGUAUGUACCGAAUCGGGGUUUUUGGUUUUUGGUUUUUGGGAAAGUAUUAUGUUACGCCGUUCGGAUCUGCAC	-1.83
CAAGUCCUGUGCUACACAUCGUAUGUACCGAAUCGGGCCCGGGGCCCGGCCCGGGGAAAGUAUUAUGUUACGCCGUUCGGAUCUGCACUU	-1.97
UCCUGUGCUACACAUCGUAUGUACCGAAUCGGGCCCCCCGGGCCCCCCGGGCCCCCCGGAAAGUAUUAUGUUACGCCGUUCGGAUCUGCA	-1.05
CAAGUCCUGUGCUACACAUCGUAUGUACCGAAUCGGGAAAGGGGAAAGGGAAAGGAAAGUAUUAUGUUACGCCGUUCGGAUCUGCACUUC	-1.3
GGUGAUGGUCAACAAGCCUCAACUGCCUCUGCUACAACUGCCAAGUUCCCCGCGUCCCACCCUCCUCUAGGUGCUCCAAGGGACCACCGG	-0.259
UAACUUUAGAGGAGGAUCUGAUGGAUAUGGCAGUGGACGUGGAUUUGGGGAUGGCUAUAAUGGGUAUGGAGGAGGACCUGGAAGUGGCAA	-0.806
CUCAAGUCCUGUGCUACACAUCGUAUGUACCGAAUCGGAAAGGUUUUUGGAGGAAAGUAUUAUGUUACGCCGUUCGGAUCUGCACUUCCA	-1.24
GCAGGAAGUAAAAACAAAUGGAAAUGCUUCGGAUAGUGGCAGGGGUGGGGGUUGCUAUGGAAAGGGUGGGAUGGGAGUGGGUAAAGAGUU	2.29
CUCAAGUCCUGUGCUACACAUCGUAUGUACCGAAUCGGUUGGGUUGGGGUUGGGAAAGUAUUAUGUUACGCCGUUCGGAUCUGCACUUCC	0.448
GUCCUGUGCUACACAUCGUAUGUACCGAAUCGGGGUUUGGGGAGGGGUUUUUUUGGGGAAAGUAUUAUGUUACGCCGUUCGGAUCUGCAC	2.02
CAAGUCCUGUGCUACACAUCGUAUGUACCGAAUCGGGCCCGGGCCCGGGCCCGGGGAAAGUAUUAUGUUACGCCGUUCGGAUCUGCACUU	-1.83
AAGUCCUGUGCUACACAUCGUAUGUACCGAAUCGGGGAAAAAGGGGAGGGGUGGGGAAAGUAUUAUGUUACGCCGUUCGGAUCUGCACUU	1.86
UCCUGUGCUACACAUCGUAUGUACCGAAUCGGAAAAAAAGGUUUUUUUGGUUUUUUUGGAAAGUAUUAUGUUACGCCGUUCGGAUCUGCA	-1.26
UAACUUUAGAGGAGGAUCUGAUGGAUAUGGCAGUGGACGUAGAUUUGGGGAUGGCUAUAAUGGGUAUGGAGGAGGACCUGGAGGUGGCAA	-1.06

Series 2 — target: CCNB3, cyclin fold, Cln2 fusion (human); method: yeast growth competition, sequencing; matrix: yeast; notes: strong parent motif; baseline: not given; reading: higher = stronger binding
Starting sequence: E2F1 docking peptide (human); PPVKRRLDFETDH
Change	normalised enrichment score
D8S	1.79
F9I	0.281
E10F	1.47
P2A	1.8
T11G	2.52
E10Y	1.74
L7N	-0.077
V3T	1.01
E10H	2.16
R5V	0.108
V3D	-0.273
D8T	2.94
L7Y	0.129
R5Y	0.194
R5S	-0.204
F9W	0.807
E10I	1.23
F9S	0.193
R6K	3.18
R5W	0.0825
T11Q	2.44
R6Q	0.479
E10K	1.72
L7S	-0.167
E10G	3.18

Series 3 — method: protein-binding microarray; molecule type: double-stranded DNA, one strand shown; matrix: in vitro; tested at: 250 nM; notes: 60-bp whole probe; together with: salmon DNA 0.4 mg/ml; baseline: random background probes; reading: higher = stronger binding; all sequences stand within: GCCTAGCAC … GTCTTGATTCGCTTGACGCTGCTG
Target: Interferon regulatory factor 7, full length, phosphomimetic (IRF7, Homo sapiens, UniProt Q92985, residues 1-503, S101K/S471D/S472D/S475D/S476D/S477D/S483D/S484D/S487D)
Target sequence (chain): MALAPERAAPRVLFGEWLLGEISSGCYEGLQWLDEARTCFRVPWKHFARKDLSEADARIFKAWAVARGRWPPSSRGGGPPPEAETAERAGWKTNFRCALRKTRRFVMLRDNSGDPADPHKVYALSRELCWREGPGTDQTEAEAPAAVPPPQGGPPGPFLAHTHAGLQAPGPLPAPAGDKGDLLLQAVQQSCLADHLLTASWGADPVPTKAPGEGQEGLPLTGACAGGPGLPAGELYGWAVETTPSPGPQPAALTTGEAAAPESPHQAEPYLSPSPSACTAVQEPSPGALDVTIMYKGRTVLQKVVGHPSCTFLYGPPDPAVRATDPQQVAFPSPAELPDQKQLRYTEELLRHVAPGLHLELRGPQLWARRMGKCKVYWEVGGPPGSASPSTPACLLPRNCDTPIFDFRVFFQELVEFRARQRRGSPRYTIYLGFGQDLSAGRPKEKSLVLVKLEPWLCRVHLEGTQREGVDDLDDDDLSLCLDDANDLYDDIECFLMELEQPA
Sequence	log fluorescence [z-score]
TTAGGACTGGGTCTAGGTTAGTGCTAG	-0.244
TTAGGACTGGCGTTTCGGTTAGTGCTA	2.82
TCAGATCTCCGAGATGCCACTGTGCTA	-0.358
TCATATGTCCTGTCTACAACTGTGCTA	0.547
TTTCATTGCTGCCCTCAGAAAGTGCTA	0.57
TCATTTTTATTTATAAAACTGTGCTAG	0.895
TTCGCTTTCTTTACCACATTGTGCTAG	1.11
GTCGGTATCGGGTTTCGGGACGTGCTA	3.84
GCCGGTATCCTACTGCTGACGTGCTAG	-0.187
TTCATTCCTGATCTCTGGTCGTGCTAG	0.816
TTAGGACAGCTACTGCTTTAGTGCTAG	-0.314
TTAGGGCTGGACTTTCGGTTAGTGCTA	-0.332
GACGGTCCCCTTATCCTGACGTGCTAG	0.157
TCACATTTTTTTATCAAACTGTGCTAG	0.993
TTAGGACTGGGTATCAGTTAGTGCTAG	-0.247
GTCCTCCTCTCTCTTTCCACGTGCTAG	1.94
GACGGTATCCGGTTTCGGGACGTGCTA	3.16
CTGTTCTGCAGACTTCTGTCGTGCTAG	1.34
GACGAACTGAGTTTCGAGACGTGCTAG	3.45
TCATAATTTACTTTGGTACTGTGCTAG	0.445
TTAGAACTGGGGTTTGGATTAGTGCTA	-0.515
TTAGATCTCAGTCTCGATTCGTGCTAG	4.56
TCATCTCCATTTTTCTAACTGTGCTAG	1.25
GACGGTATCGACTATCCGGACGTGCTA	0.279
TGAGATTTCAGTCTCGATTAGTGCTAG	1.43

Series 4 — method: universal PBM; molecule type: double-stranded DNA, one strand shown; matrix: in vitro; tested at: not given; reading: higher = stronger binding
Target: Sal-like protein 4, full length isoform B (SALL4, Homo sapiens, UniProt Q9UJQ4-2, residues 1-616)
Notes: 8-mer, flanks averaged, mean of replicates
Sequence	E-score
CTACCGCC	-0.272
TAGGTAGA	0.0365
CGCTATGC	-0.204
AGACACAA	0.19
GCGTCTAC	-0.231
AGGCGCTG	-0.156
CATTGCCG	-0.0899
ATGCCAAA	0.155
AAAAACTA	0.225
CACTGCAA	0.0343
GGTGAACA	-0.0315
AGGTGTGA	-0.0429
CAGGCACA	-0.114
CCGGTACC	-0.267
GAATGCTA	0.108
CAGCGGGA	-0.316
ACTTTTCT	0.165
GCTCCCCC	-0.293
ATGGTACA	0.123
CTGTGCAC	-0.0546
CCAAATTA	0.278
CTTAAGTC	-0.105
CCCGTTGC	-0.232
AGGACAAT	0.136
ATAGCTCA	0.0629

Series 5 — method: protein binding microarray; molecule type: double-stranded DNA, one strand shown; matrix: in vitro; tested at: not given; baseline: not given; reading: higher = stronger binding
Target: Histone acetyltransferase KAT6A, winged helix 2, GST fusion (KAT6A, Homo sapiens, UniProt Q92794, residues 85-181)
Notes: 8-mer, flanks averaged, mean of 2 arrays, mostly near background
Target sequence (chain): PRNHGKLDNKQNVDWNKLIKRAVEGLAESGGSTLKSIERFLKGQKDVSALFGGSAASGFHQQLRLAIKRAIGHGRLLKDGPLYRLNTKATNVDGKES
Sequence	E-score
CCATCCCC	-0.0284
CACAGATA	-0.0559
ACGTGGAG	-0.0897
CAATCAGC	0.00842
CTCTGTGA	0.054
CTCTTTCA	0.028
AACTACGT	-0.186
CGACGATA	0.0707
CTTGAGCA	0.0479
GATGGAAC	0.0429
ATACTGAG	-0.0524
ATTCCAAT	0.00874
AAAATCGG	0.0326
TAATAACA	0.0525
CACCGGCG	0.103
ATTAGCTA	-0.149
TAACCATA	-0.181
GGTACAGA	0.0408
ATGCGCCA	0.00704
CCCTGGTC	0.0685
CTTCGTCA	0.0315
AGGACGTC	-0.218
CTCTTACA	-0.0452
GGAATTGA	-0.00234
GACTTTTA	-0.279
